Assay results of several laboratories.
Numbers after ± are the reported error.
Cas13d full length assumed: Cas13d full length assumed (Eubacterium siraeum, UniProt B0MS50)
AfsR 1-980: AfsR 1-980 (Streptomyces avermitilis)
CSTF2: CSTF2 1-107 (Homo sapiens, UniProt P33240)
UniProt P33240, sequence (whole entry, looked up): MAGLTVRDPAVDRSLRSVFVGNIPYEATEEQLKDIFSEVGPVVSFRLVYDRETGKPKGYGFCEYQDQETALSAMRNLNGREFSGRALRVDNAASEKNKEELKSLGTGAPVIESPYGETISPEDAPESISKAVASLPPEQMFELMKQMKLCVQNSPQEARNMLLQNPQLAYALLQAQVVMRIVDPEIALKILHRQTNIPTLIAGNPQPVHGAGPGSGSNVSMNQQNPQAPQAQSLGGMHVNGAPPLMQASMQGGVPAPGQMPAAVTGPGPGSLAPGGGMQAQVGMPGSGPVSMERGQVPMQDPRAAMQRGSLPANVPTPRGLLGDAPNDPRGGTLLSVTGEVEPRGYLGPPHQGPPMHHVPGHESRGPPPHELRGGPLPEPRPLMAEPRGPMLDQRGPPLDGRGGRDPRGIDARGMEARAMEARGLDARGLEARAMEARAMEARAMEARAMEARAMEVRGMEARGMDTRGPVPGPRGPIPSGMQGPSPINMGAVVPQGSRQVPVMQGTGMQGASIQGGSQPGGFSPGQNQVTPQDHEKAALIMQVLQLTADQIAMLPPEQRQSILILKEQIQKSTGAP
T1: AfsR 1-980 (Streptomyces avermitilis); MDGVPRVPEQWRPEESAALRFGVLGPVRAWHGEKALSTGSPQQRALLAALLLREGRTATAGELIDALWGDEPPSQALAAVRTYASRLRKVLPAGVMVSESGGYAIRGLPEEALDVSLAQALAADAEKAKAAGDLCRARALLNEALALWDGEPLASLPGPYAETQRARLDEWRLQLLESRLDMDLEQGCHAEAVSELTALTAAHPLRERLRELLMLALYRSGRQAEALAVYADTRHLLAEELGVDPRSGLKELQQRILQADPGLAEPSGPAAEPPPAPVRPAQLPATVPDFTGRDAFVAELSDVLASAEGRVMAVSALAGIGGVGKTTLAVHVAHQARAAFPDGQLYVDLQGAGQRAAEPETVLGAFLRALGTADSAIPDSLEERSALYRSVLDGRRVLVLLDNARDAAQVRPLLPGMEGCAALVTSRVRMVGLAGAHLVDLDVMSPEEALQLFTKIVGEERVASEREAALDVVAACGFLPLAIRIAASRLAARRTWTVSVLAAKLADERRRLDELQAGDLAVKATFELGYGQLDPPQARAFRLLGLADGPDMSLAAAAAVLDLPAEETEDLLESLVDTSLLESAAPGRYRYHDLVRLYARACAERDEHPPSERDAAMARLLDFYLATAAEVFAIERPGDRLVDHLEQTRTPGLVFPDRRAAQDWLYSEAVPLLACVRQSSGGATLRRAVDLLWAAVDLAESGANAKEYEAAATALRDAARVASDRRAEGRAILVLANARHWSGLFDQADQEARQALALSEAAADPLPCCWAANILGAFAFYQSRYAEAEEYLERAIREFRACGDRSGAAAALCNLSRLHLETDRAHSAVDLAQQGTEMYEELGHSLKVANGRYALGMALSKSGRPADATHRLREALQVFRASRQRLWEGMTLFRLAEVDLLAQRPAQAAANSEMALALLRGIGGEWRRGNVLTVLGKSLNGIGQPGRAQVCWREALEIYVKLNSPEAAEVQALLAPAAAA
UniProt P0DXY9, sequence (whole entry, looked up): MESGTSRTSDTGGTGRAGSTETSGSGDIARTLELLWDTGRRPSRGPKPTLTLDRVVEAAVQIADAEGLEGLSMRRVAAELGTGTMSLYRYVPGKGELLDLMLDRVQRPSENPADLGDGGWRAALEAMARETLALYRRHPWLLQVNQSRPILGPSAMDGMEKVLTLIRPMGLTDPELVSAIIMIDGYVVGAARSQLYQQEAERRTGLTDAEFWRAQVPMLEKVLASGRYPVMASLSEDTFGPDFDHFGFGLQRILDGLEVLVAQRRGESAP
UniProt P52003, sequence (whole entry, looked up): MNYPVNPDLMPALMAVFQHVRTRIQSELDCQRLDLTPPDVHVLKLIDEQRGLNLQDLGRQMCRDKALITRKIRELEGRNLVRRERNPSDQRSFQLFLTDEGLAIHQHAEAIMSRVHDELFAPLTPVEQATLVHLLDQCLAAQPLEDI
UniProt Q7A224, sequence (whole entry, looked up): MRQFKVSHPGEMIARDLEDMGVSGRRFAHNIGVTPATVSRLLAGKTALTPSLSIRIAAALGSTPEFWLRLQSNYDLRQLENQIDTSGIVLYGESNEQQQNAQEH
UniProt Q9NZQ7, sequence (whole entry, looked up): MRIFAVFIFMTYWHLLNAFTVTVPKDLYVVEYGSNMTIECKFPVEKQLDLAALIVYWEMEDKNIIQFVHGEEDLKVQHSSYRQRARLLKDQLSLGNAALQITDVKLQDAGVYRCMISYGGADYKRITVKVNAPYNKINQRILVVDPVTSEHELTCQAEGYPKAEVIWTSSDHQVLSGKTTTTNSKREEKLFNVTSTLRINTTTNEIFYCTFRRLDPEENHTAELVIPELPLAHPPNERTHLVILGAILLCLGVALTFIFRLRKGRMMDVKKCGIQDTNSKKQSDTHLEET

`nonaarginine` has a koff of 2860 ± 290 s⁻¹ (PorA peptide pore; peptide binding, planar bilayer single-channel recording; 0.5 µM, pH 7.4, -35 mV, cis side, 150 mM KCl).
`RNA 1 CACCCGUGCAAAAAUGCAGGGGUCUAAAACUGAGCGGAUAACCUCUCUAUGG / RNA 2 CGUACCAUAGAGAGGUGAUCCGCUCACCGA (crRNA/target DNA; mismatch at position 10)` — result for binding: “binds” (Cas13d full length assumed; cryo-EM; intermediate state).
`GCGGAAGGCGGCTGACCAGAGGGCCCTGCAAGAAACCAGCATAGCGGTTTGTTTGTGGCGCCCGTCACCACTTCGCCGACGCGGTACCCCCGGAGGCCAGGCACCGGTCACTGCCGCCGCCCGCGCTGCCCGCTGCCGCCGCCGAGCCGTACCGCGCGGCTCGGGCGTCGCGCATGCCGTCAGGCCCCCGGCACCTCCCTG (dsDNA)`: binding “no binding” (T1, AfsR 1-980 (Streptomyces avermitilis); EMSA; double-stranded DNA, one strand shown).
For `GTCTTTAATAATTAAACTAGTGTCTTGACAGATGTAAACAACAGGTATAAAC (dsDNA)`, binding read “binds” (niaR 1-174 (Streptococcus mutans, UniProt Q8DVX8); EMSA; double-stranded DNA, one strand shown).
`ATTAGTTTGTATGCAAACCATT (dsDNA)`: binding “binds” (MarR-family transcriptional regulator 1-147 Y26A (Clostridioides difficile, UniProt A0A9R0BIW1); EMSA; double-stranded DNA, one strand shown).
`GACTACGTACTGTTACGGCTCCATCGGTACCGCAATCAGGCCAGATCTGC (dsDNA)`: binding “binds” (uvrA full length assumed (Acetivibrio thermocellus, UniProt A3DC70); cryo-EM; double-stranded DNA, one strand shown; with: AMPPNP).
For `AUGUUU (ssRNA)`, binding read “binds” (CSTF2; NMR titration; RNA; 27 °C).
`CACCCGUGCAAAAAUGCAGGGGUCUAAAACUGAGCGGAUAACCUCUCUAUGG (ssRNA; crRNA hairpin, direct repeat-spacer)`: binding “binds” (Cas13d full length assumed; cryo-EM; folded RNA).
For `ATCCAGAGTGACGCAGCAATTACCGATGGCTTGTTTGTAATGTAGGGTTCCGTCCGATTGGACACGGTGGCTTAGT (ssDNA)`, binding read “no binding” (CD274 19-238 (Homo sapiens, UniProt Q9NZQ7); ELONA; single-stranded DNA; off-target, specificity test).
`TGTATTGCACATCGTGTAATATCGCGGTATAGTATTACACACCATGTAATACAGAGATGGC (dsDNA)` — result for binding: “binds” (higA 1-104 (Proteus vulgaris, UniProt Q7A224); EMSA; double-stranded DNA, one strand shown; 0.5 µM).
Under binding, `TTACCGACAGGTTTCCAAAAGAAACCCGGGATGAA (dsDNA)` is recorded as “binds” (nalD full length assumed (Pseudomonas aeruginosa, UniProt Q9HY46); EMSA; double-stranded DNA, one strand shown).
`GGCAATTCCCTTAGTTGGCCACCGTCGGCGGTCACGCAGGGCAATGGGCGGGACCCCGGGCGGCGCTCGGCGGAGCGGGCTCGCGCGGGGGTGATCCCTCGCCCTTCGCGCACTGCGACACTTCAGTCACGCTACGCTCACATGAATTCCGAATCAGGCAGGCATCTCGACATCAGACCGACAGGTCACCCAGGCATCCCCAGTTCACGGCAGAACGGCACAAGGCGAC (dsDNA)` — result for binding: “no binding” (T1, AfsR 1-980 (Streptomyces avermitilis); EMSA; double-stranded DNA, one strand shown).
For `aspterric acid`, the inhibition was 99.2% (root length; Arabidopsis thaliana Col-0 seeds; 25.0 µg/mL, 7 days, dark).
`GCCGCCCCTCCCGTGTGCTCGCGCCCTGCCTCCGGCACCAAACTGAGTACAGCGTACCCGATTACGCGTACGCCGTACCCAGTTTTTCTTCGAGGACCTAAGCTGGCTCC (dsDNA)` — result for binding: “binds” (drrR1 full length assumed (Streptomyces coeruleorubidus, UniProt P0DXY9); EMSA; double-stranded DNA, one strand shown).
The GGT of `HVLVMSATRR` is reported as 0 U/L (peptide, C57BL/6J mice, male, serum; subcutaneous osmotic pump, 3 mg/kg/day peptide basis, 8 weeks).
For `AAATGTGGTTGATCCAGTCAACTATTTTG (dsDNA)`, binding read “binds” (mexR 1-142 (Pseudomonas aeruginosa, UniProt P52003); EMSA; double-stranded DNA, one strand shown).
Under binding, `RNA 1 CACCCGUGCAAAAAUGCAGGGGUCUAAAACUGAGCGGAUAACCUCUCUAUGG / RNA 2 CGUACCAUAGAGAGGUUAUCCGAUCACCGA (crRNA/target DNA; mismatch at position 4)` is recorded as “binds” (Cas13d full length assumed; cryo-EM; intermediate state).
For `CTGTACGTCACTATCGAAGCAATACAGGTAGACGCGGACATCAAGCCCGCCGTGAAGGTGCAGCTTCTCTACAGAGTGCG (dsDNA; blunt; target/nontarget strands)`, binding read “binds” (Csy1/Csy2/Csy3/Csy4 1-434; 1-327; 1-342; 1-187 (Pseudomonas aeruginosa); EMSA; double-stranded DNA, one strand shown).
The fold change of `insulin human` is reported as 1 (refers to: TGM2 mRNA; EcoHIV-infected mouse, brain; i.p., dose not given; relative to: PBS).
`TTTATAAAAAACCAATATATGTCTTGACACATGTAAAAAACGTTGTATAATG (dsDNA)`: binding “no binding” (niaR 1-174 K97Q (Streptococcus mutans, UniProt Q8DVX8); EMSA; double-stranded DNA, one strand shown).
The Kd of `GGGCGGGGGAGACAUAUAUCACAGCCUGUCUCGUGCCCGACCCCGCCC (RNA (Hepatitis C virus); hairpin; bulge; 12 nt apical loop)` is reported as 2480 ± 480 nM (HNRNPA1 89-179, linker-RRM2 (Homo sapiens); ITC; folded RNA).
For `GGGAGUCGACCGACCAGAAUGAUUGUUGUGUGUAUUGGGUGGCGGUAUGUGCGUCUACAUCUAGACUCAU (XNA; 2'-fluoro pyrimidines)`, binding read “binds” (etfB 1-253 (Leptospira interrogans, UniProt Q8F8Y6); pull-down; modified nucleic acid).
`AUUUUAUGUUUCAGGU (ssRNA)`: binding “binds” (CSTF2; NMR titration; RNA).
`RNA 1 AACAAAACAAAAUAGCACCGUAAAGC / RNA 2 GCUUUACGGUGCUA (dsRNA; 14 bp duplex, 5' 12 nt overhang)` gave a Kd of 2.2 nM (DEAD-box ATP-dependent RNA helicase RhpA (Pseudomonas aeruginosa, UniProt Q9HX66); fluorescence polarization; double-stranded RNA; with: AMP-PNP 1 mM).
